Measured values gathered from unrelated publications.
Each line is one published result; not all experiments were run side by side. ± marks the error that the study gave.
ADORA1: Adenosine receptor A1 (ADORA1, Homo sapiens, UniProt P30542)
ALB: Albumin (ALB, Homo sapiens, UniProt P02768)
SLC10A2: Ileal sodium/bile acid cotransporter (SLC10A2, Homo sapiens, UniProt Q12908)
ABO G235S/G268A/L266M/R176G: Histo-blood group ABO system transferase (ABO, Homo sapiens, UniProt P16442, G235S/G268A/L266M/R176G)
ESR1: Estrogen receptor (ESR1, Homo sapiens, UniProt P03372)
ESR2: Estrogen receptor beta (ESR2, Homo sapiens, UniProt Q92731)
T1: pre-miR-21 RNA (Homo sapiens); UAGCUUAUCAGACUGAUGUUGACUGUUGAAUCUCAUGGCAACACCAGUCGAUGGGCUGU
T2: DNA aptamer; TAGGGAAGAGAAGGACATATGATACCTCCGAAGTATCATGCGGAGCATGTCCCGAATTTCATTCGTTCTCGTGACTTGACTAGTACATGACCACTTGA

`C#CCCCC[C@H](C)C[C@@H](C)C(=O)N(C)[C@H](C(=O)N(C)[C@@H](Cc1ccccc1)C(=O)N1CCC[C@H]1C(=O)N1CCC[C@H]1C(C)=O)C(C)C` — result for “stabilization temperature limit”: at most 46 °C (BCL2 (Homo sapiens, UniProt P10415); cellular thermal shift; DU-145; highest temperature with stabilization).
`Cc1ccc(C(=O)Nc2ccc(CP(=O)(O)O)cc2CP(=O)(O)O)cc1NC(=O)c1cccc(NC(=O)Nc2cccc(C(=O)Nc3cc(C(=O)Nc4ccc(CP(=O)(O)O)cc4CP(=O)(O)O)ccc3C)c2)c1` gave a Vmax of 79.3 ± 2.8 mAU/min (F11 (Homo sapiens, UniProt P03951); enzyme activity, inhibitor; 25 µM, added: S-2366 substrate).
The IC50 of `CN1CCN(c2ccc(-c3ccc4[nH]c(-c5ccc(OCCCC(=O)NCCCN=[N+]=[N-])cc5)nc4c3)cc2)CC1` is reported as over 50 µM (T1, pre-miR-21 RNA (Homo sapiens); RNase L cleavage, competitor, RNase L cleavage assay; added: RIBOTAC TGP-21-C1-3).
For `CC(=O)Nc1ccc(-c2c(C#N)c(N)nc(SCc3ccccc3)c2C#N)cc1`, the Emax was 141% (ADORA1; cAMP, agonist).
`Cc1nc2c(N)[n+]3cnc2n1[C@@H]1O[C@H](COP(=O)([O-])OP(=O)(O)OC[C@H]2O[C@@H]3[C@H](O)[C@@H]2O)[C@@H](O)[C@H]1O` gave an IC50 ratio of 53 (cADPR receptor, sea urchin; cADPR-induced Ca2+ release, antagonist; sea urchin egg homogenate; reference: compound over 8-amino-cADPR).
With `O=C1c2ccc(O)cc2OC(Oc2ccc(-c3coc4cc(O)ccc4c3=O)cc2)C1(O)c1ccc(O)cc1` (stereo not shown) the Vmax was 25.6 ± 1.3 µmol/min/mg (PRXC1A (Armoracia rusticana, UniProt P00433); oxidation, substrate).
For `O=Cc1ccc(-c2cn([C@@H]3O[C@H](COP(=O)(O)OP(=O)(O)O[C@H]4O[C@H](CO)[C@H](O)[C@H](O)[C@H]4O)[C@@H](O)[C@H]3O)c(=O)[nH]c2=O)s1`, the Km was about 10 fold (ABO (Homo sapiens, UniProt P16442, G268A/L266G); galactosyltransferase activity, substrate, HPLC; acceptor; reference: natural donor).
For `CCCCCC(C)NCC(=O)O` (stereo not shown), “random coil content” read 33.6% (ALB; circular dichroism; 0.6 mM).
`CC(=O)NC1CC=C(c2cc3c(Nc4cc5ncsc5cc4F)ncnc3s2)CC1` (racemic) has a remaining activity of 108 ± 1% (RIPK1 (Homo sapiens, UniProt Q13546); enzyme activity; 1 µM; reference: untreated).
`C[C@@H]1O[C@@H](O[C@@H]2C(=O)c3c(O)cc(O)cc3O[C@@H]2c2ccc(O)cc2)[C@H](O)[C@H](O)[C@H]1O` — result for “binding site number”: 1.18 (PTPN1 (Homo sapiens, UniProt P18031); fluorescence quenching; concentration not given).
`C=CCC(=N)NCCC[C@H](N)C(=O)O` has an IC50 ratio of 1.6 (Nitric oxide synthase 1 (Mus musculus, UniProt Q9Z0J4); cGMP accumulation, inhibitor; mouse aorta and hippocampus; reference: aorta over hippocampus).
Under “affinity increase, M41A/Y112A vs wild type”, `N[C@@H](Cc1ccc(O)c(I)c1)C(=O)O` is recorded as 50% (Iodotyrosine deiodinase (IYD, Thermotoga neapolitana, UniProt B9K712, M41A/Y112A); binding, FMN fluorescence quenching; 25 °C; reference: wild type).
The Kt of `CC(CCC(=O)NC(CCC(=O)Nc1cccc(N)n1)C(=O)O)C1CCC2C3C(O)CC4CC(O)CCC4(C)C3CCC12C` (stereo not shown) is reported as 4.44 µM (SLC10A2; transport, substrate, LC-MS/MS; ASBT-MDCK cells).
`O=C(O[C@@H]1Cc2c(O)cc(O)cc2O[C@@H]1c1cc(O)c(O)c(O)c1)c1cc(O)c(O)c(O)c1`: “number of binding sites” 0.984 (PNLIP (Sus scrofa, UniProt P00591); fluorescence titration; concentration not given, pH 8.0).
`CC1=C(/C=C/C(C)=C/C=C/C(C)=C/C=O)C(C)(C)CCC1` — result for “cooperativity constant n”: 1.43 (CNGA1 (Bos taurus, UniProt Q00194); allosteric model fit).
Under “cell surface expression”, `CC1=C(/C=C/C=C\C=C\C(C)=C\C=O)C(C)(C)CCC1` is recorded as about 6 fold (Rhodopsin (RHO, Homo sapiens, UniProt P08100, P23H); pharmacological chaperone, immunostaining, nonpermeabilized cells; 661W; 2.5 µM, 16 h; reference: untreated cells).
The residence time of `CCc1nc2cc3ccccc3cc2cc1C(=O)N1CCC[C@H]1C(=O)N[C@@H](C/C=C/C[C@H](NC(=O)[C@@H]1CCCN1C(=O)c1cc2cc3ccccc3cc2nc1CC)C(=O)N[C@@H](CCCCN)C(=O)NCCCN)C(=O)N[C@@H](CCCCN)C(=O)NCCCN` is reported as 231 s ((CCUG)10 RNA; SPR).
`CCCCCCCCO[C@@H]1O[C@H](CO)[C@H](O)[C@H](O)[C@H]1O[C@@H]1O[C@@H](C)[C@@H](O)[C@@H](O)[C@@H]1O` gave a kon of 250000 M⁻¹ s⁻¹ (ABO G235S/G268A/L266M/R176G; methyl-TROSY NMR titration lineshape; two-state binding model, added: acceptor binding, saturating UDP).
For `COc1ccc(CC(C)=C(c2ccc(Cl)cc2)c2ccc(OCCN3CCOCC3)cc2)cc1`, the fold activation was 1.07 ± 0.09 fold (ESR1; reporter gene, agonist, yeast estrogen screen; 1 µM; reference: DMSO).
`CC(=O)[C@H]1CC[C@H]2[C@@H]3CCC4=CC(=NOCC(=O)O)CC[C@]4(C)[C@H]3CC[C@]12C` has a Kd of 2.03 nM (T2, DNA aptamer; plate-ELAA; NaCl 100 mM).
For `CCC(=C(c1ccc(O)cc1)c1ccc(OCCN(C)CCOCCOCCOCCOCCOC)cc1)c1ccccc1` (mixture of isomers), “relative binding affinity” read 8.03 ± 0.01% (ESR2; radioligand competition binding; concentration not given, Z-E/E isomer form, added: [3H]estradiol tracer; reference: estradiol).
`NC(=O)C1CCCCNC(=O)C(CCCNC(=O)c2cnccn2)NC(=O)C(Cc2ccco2)NC(=O)C(CC2CC2)NC(=O)C=CC(=O)N1` (stereo not shown) gave an enrichment factor of 1.5 (MAPKAPK2 (Homo sapiens, UniProt P49137); DNA-templated library selection; one selection round).
`CCNC(=O)[C@H]1O[C@@H](n2cnc3c(NCCCCCNC(=O)CCCCCNC(=O)COc4ccc(/C=C/C5=[N+]6C(=Cc7ccc(-c8cccs8)n7[B-]6(F)F)C=C5)cc4)ncnc32)[C@H](O)[C@@H]1O`: “log Kd minus log IC50” 1.93 (ADORA1; CRE reporter gene; CHO-A1; Gi response, added: forskolin).
With `Cn1c(=O)c2[nH]c(SCCc3ccccc3)nc2n(C)c1=O` the reporter activity was 87% (ESR1; reporter gene, ERE luciferase; T47D-KBluc; 10 µM, 24 h, added: estradiol 5 nM; reference: maximal luciferase activity).
With `Cc1ncsc1-c1ccc(C(CO)NC(=O)C2CC(O)CN2C(=O)C(C(C)C)n2cc(-c3ccc(COc4c(-c5c(C)c(F)cc6[nH]ncc56)c(C5CC5)cc5c(N6CC7CC6CN7)nc(OC6CCOCC6)nc45)cc3)nn2)cc1` (stereo not shown) the protein degradation was 82% (GTPase KRas (KRAS, Homo sapiens, UniProt P01116, G12D); degrader; mouse PK-59 xenograft, tumour; intravenous, 10 mg/kg single, 24 h).
`CC(=O)N[C@@H](CC(=O)O)C(=O)N[C@@H](CCC(=O)O)C(=O)N[C@H](C(=O)N[C@@H](CC(=O)O)C(=O)Nc1ccc2c(C)cc(=O)oc2c1)C(C)C` has a Vmax of 941 ± 31.6 RFU/min (Caspase-3 (CASP3, Homo sapiens, UniProt P42574); substrate cleavage, substrate, fluorogenic AMC release; enzyme 0.25 activity units/µL).
`CCC(=C(c1ccc(O)cc1)c1ccc(OCCN(C)CCOCCOCCOCCOCCOCCOCCOCCOCCOCCN(C)CCOc2ccc(C(=C(CC)c3ccccc3)c3ccc(O)cc3)cc2)cc1)c1ccccc1` (mixture of isomers) — result for “relative binding affinity”: 7.85 ± 2% (ESR2; radioligand competition binding; concentration not given, Z-E/E isomer form, added: [3H]estradiol tracer; reference: estradiol).
For `CCCCOc1ccc(C(=O)OCCN2CC=CCC2)cc1`, the dissociation half-time was 0.3 ± 0.1 h (CHRM5 (Homo sapiens, UniProt P08912); recovery of [3H]NMS binding after washing; membranes; 100 µM).
`C[C@H](CCC(=O)N[C@@H](CCC(=O)Nc1cncc(F)c1)C(=O)O)[C@H]1CC[C@H]2[C@@H]3[C@H](O)C[C@@H]4C[C@H](O)CC[C@]4(C)[C@H]3CC[C@]12C` has a normalized Jmax/Kt of 0.084 µM⁻¹ (SLC10A2; transport efficiency, substrate, LC-MS/MS; ASBT-MDCK).
Under “quenching rate constant”, `Cc1c(C)c(C)[c-](C)c1C.[C-]#[O+].[C-]#[O+].[C-]#[O+].[Cl-].[Cl-].[Cl-].[Ir+3].[Re+].c1cnc(-c2ncccn2)nc1` is recorded as 1.6e+12 M⁻¹ s⁻¹ (ALB; tryptophan fluorescence quenching).
`O=C1CCC(N2C(=O)c3ccc(N4CCC(C(=O)N5CCC(CCN6CCC(CNC(=O)c7cccc(-c8noc(C(F)(F)F)n8)c7)(c7nc(-c8ccccc8)cs7)CC6)CC5)CC4)cc3C2=O)C(=O)N1` (stereo not shown) has a maximum degradation of over 90% (HDAC7 (Homo sapiens, UniProt Q8WUI4); degrader, Western blot; NB-4; 3 µM, 12 h).
`CCNC(=O)[C@H]1O[C@@H](n2cnc3c(NCCCCCCCCCCCNS(=O)(=O)c4cccc5c(N(C)C)cccc45)ncnc32)[C@H](O)[C@@H]1O` — result for “log Kd minus log IC50”: 2.25 (ADORA1; CRE reporter gene; CHO-A1; Gi response, added: forskolin).
`CNc1ccccc1C(=O)O[C@H]1C[C@H](n2cnc3c(N)ncnc32)O[C@@H]1COP(=O)(O)OP(=O)(O)O`: “FRET distance change” 4.5 Å (Unconventional myosin-Va (Gallus gallus, UniProt Q02440, D297C/G292C/I296C/S293C/V295G); stopped-flow FRET; concentration not given, temperature dependence, added: 2 mM MgCl2).
For `CC(=O)N[C@H]1[C@@H](OP(=O)(O)OP(=O)(O)OC[C@H]2O[C@@H](n3ccc(=O)[nH]c3=O)[C@H](O)[C@@H]2O)O[C@H](CO)[C@@H](O)[C@@H]1O`, the koff was 610 s⁻¹ (ABO G235S/G268A/L266M/R176G; binding, NMR).
`CN1CCN(CC(=O)N2N=C3/C(=C/c4ccccc4)CCCC3C2c2ccccc2)CC1` (mixture of isomers) gave an enzyme activity of 212% (ALOX15 (Homo sapiens, UniProt P16050); activator; 20 µM, added: arachidonic acid; reference: activator 0 µM).
For `N=C(N)NCCC[C@H](NC(=O)[C@H](CC(=O)O)NC(=O)[C@@H]1CSCCC(=O)NCC(=O)N[C@@H](Cc2c[nH]cn2)C(=O)N[C@H](Cc2ccccc2)C(=O)N[C@@H](CCCNC(=N)N)C(=O)N[C@H](Cc2c[nH]c3ccccc23)C(=O)N1)C(=O)N[C@@H](Cc1ccccc1)C(=O)NCC(N)=O`, the activation was 50% (MC3R (Homo sapiens, UniProt P41968); cAMP accumulation, agonist; HEK293 expressing MC3R; 10 µM; reference: MT-II).
`O=C(Nc1ccc(I)cc1)N1CCC(n2c(=O)[nH]c3c(Br)cccc32)CC1` has a thermal shift of 4.1 K (OGG1 (Homo sapiens, UniProt O15527); differential scanning fluorimetry; higher = stabilisation).
`O=c1[nH]cnc2c(CN3C[C@@H](O)[C@H](O)C3)c[nH]c12` has a binding enthalpy of -12.3 ± 0.3 kcal/mol (PNP (Homo sapiens, UniProt P00491); isothermal titration calorimetry; concentration not given, pH 7.4, 27 °C, first subunit, added: 50 mM phosphate).
For `Nc1nc2ccccc2n1Cc1ccccc1`, binding read “binds” (Beta-secretase 1, mature ectodomain (BACE1, Homo sapiens, UniProt P56817); surface plasmon resonance; concentration not given).
For `CNc1nc(C#Cc2ccc(Cl)s2)nc2c1ncn2[C@@H]1O[C@H](CO)[C@@H](O)[C@H]1O`, the kon was 820000 ± 380000 M⁻¹ s⁻¹ (ADORA3 (Homo sapiens, UniProt P0DMS8); kinetic radioligand binding; 10 °C, no GTP, added: [3H]PSB-11).

For quick reference, copied from above:
With `Cn1c(=O)c2[nH]c(SCCc3ccccc3)nc2n(C)c1=O` the reporter activity was 87% (ESR1; reporter gene, ERE luciferase; T47D-KBluc; 10 µM, 24 h, added: estradiol 5 nM; reference: maximal luciferase activity).
`O=c1[nH]cnc2c(CN3C[C@@H](O)[C@H](O)C3)c[nH]c12` has a binding enthalpy of -12.3 ± 0.3 kcal/mol (PNP (Homo sapiens, UniProt P00491); isothermal titration calorimetry; concentration not given, pH 7.4, 27 °C, first subunit, added: 50 mM phosphate).
